Published values gathered from unrelated publications.
Numbered parts are unrelated; each lists some results of a single study.

Series 1
Target: RING finger protein unkempt homolog, zinc fingers 1-6, GST-SBP tag (UNK, Homo sapiens, UniProt Q9C0B0, residues 30-357)
UniProt Q9C0B0, sequence (30-357, looked up): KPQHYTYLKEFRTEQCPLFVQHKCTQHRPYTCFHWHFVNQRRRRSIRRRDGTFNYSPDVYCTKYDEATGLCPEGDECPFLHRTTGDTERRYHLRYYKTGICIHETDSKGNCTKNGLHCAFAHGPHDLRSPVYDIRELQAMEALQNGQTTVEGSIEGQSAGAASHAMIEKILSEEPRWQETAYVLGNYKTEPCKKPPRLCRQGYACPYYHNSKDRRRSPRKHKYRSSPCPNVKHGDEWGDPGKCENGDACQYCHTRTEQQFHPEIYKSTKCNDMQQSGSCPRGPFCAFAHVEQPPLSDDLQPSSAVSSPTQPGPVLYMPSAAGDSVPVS
Method: RNA Bind-n-Seq
Form: RNA
Matrix: in vitro
Concentration: not given
Notes: RNA with constant flanks, human-mouse chimeric sites, ends assumed
Baseline: input RNA pool
Direction: higher = stronger binding
Constant ends, left off below: GGGAGUUCUACAGUCCGACGAUC … CAACAGAGGAUUGAGCAUCA
| Oligonucleotide | bound/input enrichment |
| --- | --- |
| CACAGAGCAGCACCUACCCCCUCCUCCUUUCCACACCUGCAAACUCUUUUACUUGGGCUGAAUAUUUAGUGUUAAUUCAUCUCAGCUUUGAGGGCUCCCUGUGGCAAUUCCCGGAUUAAA | 1.01 ratio |
| GUUGCCAGCUUCCGGUUCCGUUGGGCUAGCAAGCUCCCUGAGCUACGUGUCUCUACGCUCUCAAUCCGCCAUCCAACAAACAUGGAUCAGGUAAUGCUGCAGUUUGUGCCCAGCCGGCAG | 0.168 ratio |
| AGAGAUAAGACAUCCAGGAACAUGCGAGGGUCACGGAUGAAUGGGUUGCCUAGCCCCACUCAUAGUGCCCACUGUAGCUUCUACCGAACCAGAACCUUGCAGGCACUGAGUAAUGAGAAG | 0.248 ratio |
| GGACAUCUGUCAAAUUGUUAUGUUCCUAAAAACGUAGUGAACACUCUGAUACACUUCAUCUGCUUGUACAUCUGUAUUUGUAUAAUAUGUAAAUAUGUUAAUCCAAGCAAUGUGUCACUU | 0.148 ratio |
| AACUUCGUGCAUCGGUUUCCCUUUGUAGCUGUUUCAAUUGGCUUCCUUGUGAAUAAAGAGAUGGAGUUUGGAGUUGUGUACAGCUGUGUGGAAGAUAAGAUGUACACUGCCAGAAAAGGG | 0.345 ratio |

Series 2
Target: Ras GTPase-activating protein-binding protein 1, full length (G3BP1, Homo sapiens, UniProt Q13283)
UniProt Q13283, sequence (whole entry, looked up): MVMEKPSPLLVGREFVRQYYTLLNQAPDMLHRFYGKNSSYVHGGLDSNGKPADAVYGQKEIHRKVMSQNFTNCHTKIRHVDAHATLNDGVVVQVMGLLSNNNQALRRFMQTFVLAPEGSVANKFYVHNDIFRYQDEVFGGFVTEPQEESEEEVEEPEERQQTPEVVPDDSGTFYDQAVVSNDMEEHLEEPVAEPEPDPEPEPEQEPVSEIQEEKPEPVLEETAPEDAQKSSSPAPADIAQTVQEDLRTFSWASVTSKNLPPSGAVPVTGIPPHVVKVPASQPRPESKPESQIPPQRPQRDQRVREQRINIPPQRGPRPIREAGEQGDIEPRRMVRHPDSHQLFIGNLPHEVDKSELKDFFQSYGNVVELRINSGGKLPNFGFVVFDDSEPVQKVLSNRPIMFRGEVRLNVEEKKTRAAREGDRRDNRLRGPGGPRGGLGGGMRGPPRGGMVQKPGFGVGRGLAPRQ
Method: RNA Bind-n-Seq
Form: RNA
Matrix: in vitro
Concentration: 200 nM
Notes: whole 134-nt RNA, ends assumed
With: 150 mM LiCl
Baseline: input library
Direction: higher = stronger binding
All molecules: 7-deaza-guanosine replaces G
| Oligonucleotide | log2 enrichment |
| --- | --- |
| GGGAGUUCUACAGUCCGACGAUCUCAAGUCCUGUGCUACACAUCGUAUGUACCGAAUCGGGGAGGGGUGGGGAGGGGAAAGUAUUAUGUUACGCCGUUCGGAUCUGCACUUCCUGGAAUUCUCGGGUGUCAAGG | 0.234 |
| GGGAGUUCUACAGUCCGACGAUCAUAGAUUGCGCAGUCUCUUUGUGGAGAGGACUUGAUCAUUAAAGGAAUCAGCGUUCAUAUAUCCAAUGCCGAACCUAAGCACAAUAGCAAUGGAAUUCUCGGGUGUCAAGG | -0.818 |
| GGGAGUUCUACAGUCCGACGAUCAGUCCUGUGCUACACAUCGUAUGUACCGAAUCGGGUUUGGGUUUUUUUGGGAAAGGGAAAGUAUUAUGUUACGCCGUUCGGAUCUGCACUUGGAAUUCUCGGGUGUCAAGG | -0.321 |

Series 3
Target: Sal-like protein 4, full length isoform A (SALL4, Homo sapiens, UniProt Q9UJQ4, residues 1-1053)
UniProt Q9UJQ4, sequence (whole entry, looked up): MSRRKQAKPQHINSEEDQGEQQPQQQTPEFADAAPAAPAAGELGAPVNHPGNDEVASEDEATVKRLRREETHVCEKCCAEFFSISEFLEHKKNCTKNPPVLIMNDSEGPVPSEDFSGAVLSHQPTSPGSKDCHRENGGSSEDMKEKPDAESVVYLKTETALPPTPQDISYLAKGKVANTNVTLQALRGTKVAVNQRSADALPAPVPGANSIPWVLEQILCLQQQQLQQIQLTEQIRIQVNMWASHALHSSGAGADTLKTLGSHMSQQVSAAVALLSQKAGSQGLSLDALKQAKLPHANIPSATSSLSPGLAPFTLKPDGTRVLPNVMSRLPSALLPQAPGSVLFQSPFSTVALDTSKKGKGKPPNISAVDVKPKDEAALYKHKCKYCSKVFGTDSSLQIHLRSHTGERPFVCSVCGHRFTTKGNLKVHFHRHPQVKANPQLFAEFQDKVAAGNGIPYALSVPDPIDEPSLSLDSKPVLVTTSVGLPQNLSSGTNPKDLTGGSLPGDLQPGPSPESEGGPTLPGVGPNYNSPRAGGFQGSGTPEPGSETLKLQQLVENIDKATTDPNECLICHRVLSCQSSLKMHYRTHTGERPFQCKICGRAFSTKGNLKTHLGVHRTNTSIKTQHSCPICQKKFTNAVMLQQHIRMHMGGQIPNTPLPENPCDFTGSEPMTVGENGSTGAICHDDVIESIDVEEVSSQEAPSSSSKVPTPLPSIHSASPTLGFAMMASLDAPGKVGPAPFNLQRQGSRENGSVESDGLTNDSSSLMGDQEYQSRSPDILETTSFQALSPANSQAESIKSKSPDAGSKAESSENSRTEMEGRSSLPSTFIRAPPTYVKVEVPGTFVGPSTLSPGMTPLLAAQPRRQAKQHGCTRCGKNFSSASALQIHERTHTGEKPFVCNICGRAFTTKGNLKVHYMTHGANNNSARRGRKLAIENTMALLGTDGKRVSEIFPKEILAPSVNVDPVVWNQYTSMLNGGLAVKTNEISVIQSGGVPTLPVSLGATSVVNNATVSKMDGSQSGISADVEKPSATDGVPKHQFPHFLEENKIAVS
Method: universal PBM
Form: double-stranded DNA, one strand shown
Matrix: in vitro
Concentration: 600 nM
Notes: 8-mer, flanks averaged, mean of replicates
Direction: higher = stronger binding
| Oligonucleotide | E-score |
| --- | --- |
| CAGGATAC | -0.057 |
| ATGATAGC | 0.318 |
| GGTAAATA | 0.259 |
| AGACACAC | -0.157 |
| GATATTGC | 0.237 |
| GAATTGAC | 0.0289 |
| CATGCGGC | -0.193 |

Single results of other studies
| Molecule | target | test | system | setting | how to read | endpoint | result |
| --- | --- | --- | --- | --- | --- | --- | --- |
| PhoQ, residues 284 288 289 292 302 303 ALAMYF | PhoP, residues 12 14 15 18 19 HEGLL (Escherichia coli, UniProt P23836) | Sort-seq, measured: YFP reporter | E. coli | PhoQ-PhoP variant library, with: 10 µM Mg2+ | baseline: high Mg2+ state, higher = stronger signaling | fold induction | 0.728 |

A few entries again (series 1):
| Oligonucleotide | bound/input enrichment |
| --- | --- |
| GGACAUCUGUCAAAUUGUUAUGUUCCUAAAAACGUAGUGAACACUCUGAUACACUUCAUCUGCUUGUACAUCUGUAUUUGUAUAAUAUGUAAAUAUGUUAAUCCAAGCAAUGUGUCACUU | 0.148 ratio |
| AGAGAUAAGACAUCCAGGAACAUGCGAGGGUCACGGAUGAAUGGGUUGCCUAGCCCCACUCAUAGUGCCCACUGUAGCUUCUACCGAACCAGAACCUUGCAGGCACUGAGUAAUGAGAAG | 0.248 ratio |
| CACAGAGCAGCACCUACCCCCUCCUCCUUUCCACACCUGCAAACUCUUUUACUUGGGCUGAAUAUUUAGUGUUAAUUCAUCUCAGCUUUGAGGGCUCCCUGUGGCAAUUCCCGGAUUAAA | 1.01 ratio |
